Literature values that unrelated publications cite.
Each line is one published result; not all experiments were run side by side. ± marks the error that the study gave.

`CC(C)C(=O)N1CCC(c2ccc(NC(=O)N3Cc4ccccc4C3)cc2)CC1` has an EC50 of 0.0092 µM (PC-3).
For `CCn1nccc1C1CCCN1S(=O)(=O)c1cc(C)c(C)cc1C` (stereo not drawn), the inhibition was over 69% (human monocytes; phagocytosis of anti-D RBCs; 5 µM, commercial sample).
The IC50 of `c1ccc2c(c1)CCNC2c1c[nH]c2ncccc12` (stereo not drawn) is reported as over 100 µM (MRC-5 fibroblasts; cytotoxicity).
`CC(=O)OC1C(=O)C2(C)C(O)CC3OCC3(OC(C)=O)C2C(OC(=O)c2cccc(OC(F)(F)F)c2)C2(O)CC(OC(=O)C(O)C(C=C(C)C)NC(=O)OC(C)(C)C)C(C)=C1C2(C)C` (stereo not drawn): mammosphere formation “decreased” (MCF7/PTX; concentration not given).
For `CCC(=C(c1ccc(O)cc1)c1ccc(O)cc1)[c-]1cccc1.[Fe+2].c1cc[cH-]c1`, the TGI was 4.28 µM (NCI60 panel; mean-graph midpoint).
`c1ccc2c(c1)CCCNC2c1c[nH]c2ccccc12` (stereo not drawn) gave an IC50 of over 100 µM (MRC-5 fibroblasts; cytotoxicity).
With `N#CN=C(NCc1ccc(S(=O)(=O)c2cccc(OC(F)(F)F)c2)cc1)Nc1ccncc1` the EC50 was 0.00033 µM (MCF7).
With `c1ccc2c(c1)CCNC2c1c[nH]c2ccncc12` (stereo not drawn) the IC50 was over 100 µM (COLO 205; cytotoxicity).
`CC(C)c1ccc(NC(=O)Nc2ccc(NC(=O)c3c[nH]c4ccc(Cl)cc4c3=O)cc2)cc1` gave a potency ratio of 5.24 fold (HepG2; relative to: cpd over sorafenib).
`O=C1c2ccc3c4ccc5c6c(ccc(c7ccc(c2c37)C(=O)N1CCN1CCCCC1)c64)C(=O)N(CCN1CCCCC1)C5=O` gave an effective concentration of 1 µM (PC-3; telomere shortening; long-term treatment).
With `CNCCN(C)Cc1ccc(-c2ccc(C(F)(F)F)cc2)o1` the IC50 was 69.8 µM (Daoy; cell viability).
`COc1ccc(Nc2nc(Nc3ccc(OCC[18F])cc3)ncc2Br)cc1` gave a tissue uptake of 1.88 ± 0.13 %ID/g (S180 tumour-bearing mice, bone; intravenous, 5 min).
With `CO[C@@H]1[C@@H](OC(=O)c2ccc(C)[nH]2)[C@@H](O)[C@H](Oc2ccc3c(O)c(NC(=O)c4c[nH]c(C(=O)Nc5c(O)c6ccc(O[C@@H]7OC(C)(C)[C@H](OC)[C@@H](OC(=O)c8ccc(C)[nH]8)[C@H]7O)c(C)c6oc5=O)c4C)c(=O)oc3c2C)OC1(C)C` the GI50 was 0.5 to 5 µM (NCI60 tumour cell lines; cell growth).
`c1ccc2c(C3NCCc4c3[nH]c3ccccc43)c[nH]c2c1` (stereo not drawn) gave an IC50 of 22.9 µM (MRC-5 fibroblasts; cytotoxicity).
Under “lowest effective concentration”, `CC(C)=CCC/C(C)=C/CCn1cc(CC(C)(P(=O)(O)O)P(=O)(O)O)nn1` is recorded as 20 nM (myeloma cells).

For quick reference, copied from above:
`CC(C)c1ccc(NC(=O)Nc2ccc(NC(=O)c3c[nH]c4ccc(Cl)cc4c3=O)cc2)cc1` gave a potency ratio of 5.24 fold (HepG2; relative to: cpd over sorafenib).
With `N#CN=C(NCc1ccc(S(=O)(=O)c2cccc(OC(F)(F)F)c2)cc1)Nc1ccncc1` the EC50 was 0.00033 µM (MCF7).
